Experimental data pooled from the literature.
Numbered parts are unrelated; each lists some results of a single study. Positions count from the first letter of the parent shown.

Study 1
Target: ABI1, truncated, D143A, DHFR fusion (Arabidopsis thaliana)
Technique: DHFR PCA, deep sequencing
Sample: yeast
Setting: methotrexate growth selection, single substitutions
Added: (+)-ABA 58 µM
Baseline: wild-type fitted maximum
Reading: higher = stronger binding
Starting sequence: PYL1, truncated, DHFR fusion (Arabidopsis thaliana); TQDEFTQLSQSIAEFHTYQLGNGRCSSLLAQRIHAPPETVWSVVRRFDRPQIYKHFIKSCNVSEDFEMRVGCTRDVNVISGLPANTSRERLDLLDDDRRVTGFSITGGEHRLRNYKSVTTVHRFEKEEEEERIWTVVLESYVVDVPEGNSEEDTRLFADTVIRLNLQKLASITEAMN; partner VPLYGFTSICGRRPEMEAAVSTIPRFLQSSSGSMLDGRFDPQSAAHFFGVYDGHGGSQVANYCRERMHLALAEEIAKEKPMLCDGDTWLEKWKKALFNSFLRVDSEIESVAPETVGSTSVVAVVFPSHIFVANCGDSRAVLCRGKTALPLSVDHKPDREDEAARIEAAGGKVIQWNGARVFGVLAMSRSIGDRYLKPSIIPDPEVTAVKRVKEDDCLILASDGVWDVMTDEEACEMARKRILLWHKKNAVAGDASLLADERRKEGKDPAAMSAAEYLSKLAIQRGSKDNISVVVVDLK
Substitution	relative binding score
R90F	7.18%
E109T	88.5%
D153H	54.3%
A84F	43.1%
D153W	4.22%
K58G	64.5%
E129K	98%
E89L	-3.84%
G81P	14.6%
D159W	-1.56%
S80G	23.4%
A35F	-7.36%
S117L	0.727%
L138R	2.69%

Study 2
Target: RNA binding protein fox-1 homolog 2, RRM domain, GST-SBP tag (RBFOX2, Homo sapiens, UniProt O43251-10, residues 100-194)
Technique: RNA Bind-n-Seq
Form: RNA
Sample: in vitro
Concentration: 365 nM
Setting: natural RNA segment, single round, ends assumed
Baseline: no-protein control
Reading: higher = stronger binding
Shared flanks, not repeated: GGGAGUUCUACAGUCCGACGAUC … UGGAAUUCUCGGGUGCCAA
Residues (chain): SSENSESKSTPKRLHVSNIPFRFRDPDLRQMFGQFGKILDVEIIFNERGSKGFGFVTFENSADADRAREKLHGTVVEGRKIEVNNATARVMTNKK
Oligonucleotide	RBNS enrichment (R)
AGCAAGUUCCAAGCGCACUUUUGCAUUUGCCGAGCAGACUUUUGCAGAGCCGGUGGCAGAAGCAGUGGCCUGGCCCGGCUCUGGAGCCCAGCUUGUCUGGGCCCUGCCCA	3.13
CUGUCAGAGCCCUGGGGGUGUCCACCGGGGACAGACCCAGGGGCGGGCAGAGAGGGAAGGAGGGAGGAGGCAUCUUCCCUGAAGCCCCCAAUCUGGCCCCCCCCUCCCCA	0.207
UCGUGUAGCGUACCUAAAAGACUAUUCUAUUAUGGGUGUCCCCACUUUCUUGGUUUGGUCACCCCGAUCCCCCGGUCUUCUGCUGUAUCUAGAACAGUGACUAUAAAUGA	0.31
GCCCCAGCCCCAUCACCGAAACACAUACUCAAGAGCUCAAAUACCACUGCUCCCACCAGCGUACGGAUUAAGUUCAUCAGGCUUCCAUCGGCUGGAGCAUGGGACCAUAG	0.455
UCCUUUUUCUCUAGGGAGAAGACAUUGUCUUGGAGAACAGCUGGCUCGAAUGGAAAUGUUCUUGUUUUUUACAUCAUUACUUCAGCAAUUUCAUUUGCAUUUUCCACAUG	0.313
AAUUGGAGGAGGCUUGGCCCUCAGCCCUUAUAUCUCUCUCUUUUUCACUCUCUUCCUCCCACCCCCAAGACUGAGUUUUGGGGGGCAAGGUGGAGAGAGCUGGCAACUAC	0.198
GCAACUAGCUCCCCUGUCGGCCAGCUAAGAGAGCUGGGACAGUGGAGGCUGGCAGAAGCUGAGACGUGACUGUCUAGGAGUAACACUCAUUAAAGCUUUCAUUUUGGCAC	0.262
CAGGCGCUCGCGGAAGCACGUCACUUACUGGGUUUGUUCACCUGUUUCCAGCAAGUUUUGGUCUUUUGGGCAGAAGCCUGUUGACCAACUGUGGGCCACCACAGUCUGCA	0.862
UUAUUCCUCUUUGCCUUCUCAAUGUUAAUUUAUUGCAUGGUUUACUCCUUUUCUUUACAGCCGAAAUUGCUUUAAGUGAUGGUUAAAUUGACAAAUUAAGAUGUUAAUUU	1.41
GAUGAAGUGCAACUUUCAAAAACAUUUUUGAUGACAUCACCAGCCUACUGCAGAAGUGCAGGGCACCAGUAAACACCAUGUAUUAUUGAAGAUGAAUCUGUUUGUAUGUA	0.574
AUCGGCCUCUGCUUGUACAUCCAUCCCACCCAGCAGUCGCCGAACAUCAUAGUCGGGAGCCAUUUCACCCUGUUUUUCCAGGACUGAACACCAGCUGCUGUCAAGCAAGC	0.331
UGGGUACAUGGCCCGCAGUGGCUUUUGCCCCAGAAAGGGGAAAGGAACACGCGGGUAGAUGAUUUCUAGCAGGCAGGAAGUCCUGUGCGGUGUCACCAUGAGCACCUCCA	0.248

Study 3
Target: CCNF, cyclin fold, Cln2 fusion (human)
Technique: yeast growth competition, sequencing
Sample: yeast
Setting: strong parent motif
Baseline: not given
Reading: higher = stronger binding
Starting sequence: DTL docking peptide (human); PSSMRKICTYFHR
Substitution	normalised enrichment score
PSSMRKIATYFHR [C8A]	0.683
PSAMRKICTYFHR [S3A]	2
PSSMRKICTYFHA [R13A]	1.61
PSSMRAICTYFHR [K6A]	1.99
ASSMRKICTYFHR [P1A]	1.61
PASMRKICTYFHR [S2A]	1.53

Study 4
Target: Centromere-binding protein 1, full length, N-terminal tag (CBF1, Saccharomyces cerevisiae, UniProt P17106, residues 1-351)
Sequence of UniProt P17106 (whole entry, looked up): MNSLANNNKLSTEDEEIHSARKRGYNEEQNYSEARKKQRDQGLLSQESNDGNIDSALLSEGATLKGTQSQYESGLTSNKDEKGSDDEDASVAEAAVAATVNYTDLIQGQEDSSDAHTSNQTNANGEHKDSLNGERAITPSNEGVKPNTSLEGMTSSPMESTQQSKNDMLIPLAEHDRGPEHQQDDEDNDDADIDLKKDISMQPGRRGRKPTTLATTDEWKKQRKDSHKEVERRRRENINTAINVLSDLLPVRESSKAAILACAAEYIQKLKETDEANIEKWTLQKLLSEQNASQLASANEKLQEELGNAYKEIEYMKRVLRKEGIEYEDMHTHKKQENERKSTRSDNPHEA
Technique: protein-binding microarray
Form: double-stranded DNA, one strand shown
Sample: in vitro
Concentration: 0.8 µM
Setting: whole 60-bp probe, no competitor
Reading: higher = stronger binding
Shared flanks, not repeated: … GTCTTGATTCGCTTGACGCTGCTG
Oligonucleotide	fluorescence intensity [a.u.]
CTAATTATATACACCCACATGATTCTATAGACATTC	941
CTATTCCCCTAGAATCCCACGTGCACCCATACCTTC	4760
CTATCAGGAAGAGGCCACATGCATTACAGAGAATTC	563
GAATTTGTTGTGCGTCACCCTTCCATGATTATATAG	548
GAAACGAAACTACCCCACGTTTCGATTTTTGCCTAG	576
GAAAATCAAACTTCTGGTCACATGAGTTGAACATAG	2660
CTAGAAAAAGGGAATCAGGAGGCACGGTACCTGTTC	661
CTAAATATTAAAGTTCACAACGTGAACACCTTCTTC	613
CTAATTTATCCTTGTCAGTCACCTTAATAGACGTTC	572
GAATTGTACGCAGGTCCTGATGTACTGTATGATTAG	523
GAATACTTAATATTCTTCGTGATAATACTGTACTAG	504
GAAATCATGCTTTGCCATGTGATGCCCAATAGATAG	2550
CTAGGCTCTTGGCATGACGGGAGGCAGGACAGCTTC	507
GAAGTCCACGCCAGTTGCGTGGCCTATTACTATTAG	492
GAAAAGATTGTACGTAAGGTGACAAGCTATTTTTAG	560
TGTACGAAGCTATGTGACTTGTATATAGTAGTTAGG	575
CTAGTACAGTTGCATCAGGTTGATAGTTATGTTTTC	509
